Assay results pooled from the literature.
Lines come from different studies, so protocols differ.

CC(C)C[C@@H]1NC(=O)[C@@H](Cc2ccccc2)NC(=O)[C@H](CCN)NC(=O)[C@@H](NC(=O)[C@H](CCN)NC(=O)[C@@H](N)[C@@H](C)O)CCNC(=O)[C@H]([C@@H](C)O)NC(=O)[C@H](CCN)NC(=O)[C@H](CCN)NC1=O
MIC (Escherichia coli; MIC of compound in combination, checkerboard; BW25113; concentration not given, lowest-FICI combination, with: vancomycin): 12.5 µg/mL

CC(=O)NC[C@H]1CN(c2ccc(N3CCOCC3)c(F)c2)C(=O)O1
MIC (Enterococcus hirae; ATCC 10541): 2.96 µM

N=C(N)c1ccc(OCCC(CCOc2ccc(C(=N)N)cc2)c2ccccc2)cc1 (stereo not drawn)
MIC (Escherichia coli; mcr-2 polymyxin-resistant; 20 h, compound alone): > 200 µg/mL

CCc1nc(N)nc(N)c1OCCCOc1ccccc1CCC(=O)O
MIC (Mycobacterium avium subsp. hominissuis; resazurin microtiter; 104): 0.1 µg/mL

CC(C)(C)CNCc1nc2ccccc2n1CCOc1ccccc1
MIC (Streptococcus pneumoniae; ATCC 49619): 8 µg/mL

CC(C)C[C@@H](NC(=O)[C@H](C)NC(=O)CNC(=O)[C@@H](NC=O)C(C)C)C(=O)N[C@@H](C)C(=O)N[C@@H](C(=O)N[C@H](C(=O)N[C@@H](C(=O)N[C@@H](Cc1c[nH]c2ccccc12)C(=O)N[C@H](CC(C)C)C(=O)N[C@@H](Cc1c[nH]c2ccccc12)C(=O)N[C@H](CC(C)C)C(=O)N[C@@H](Cc1c[nH]c2ccccc12)C(=O)N[C@@H](C(=O)N[C@@H](Cc1c[nH]c2ccccc12)C(=O)NCCO)C(C)C)[C@H](C)O)C(C)C)C(C)C
MIC (Streptococcus pneumoniae; broth microdilution; NBRC 102642): 0.0083 µM

CC1(C)S[C@@H]2[C@H](NC(=O)[C@H](N)c3ccccc3)C(=O)N2[C@H]1C(=O)O
MIC (Serratia fonticola; clinical isolate RKI-No_517/16): > 16 µg/mL

CC[C@H](C)CCCCC(=O)N[C@@H](CCN)C(=O)N[C@H](C(=O)N[C@@H](CCN)C(=O)N[C@H]1CCNC(=O)[C@H]([C@@H](C)O)NC(=O)[C@H](CCN)NC(=O)[C@H](CCN)NC(=O)[C@H](CC(C)C)NC(=O)[C@@H](CC(C)C)NC(=O)[C@H](CCN)NC1=O)[C@@H](C)O
MIC (Staphylococcus simulans; broth microdilution; 22, cation-adjusted Mueller-Hinton broth): 3 µM

CN1CC(O)=C(C(=O)NC(C(=O)NC2C(=O)N3C2SC(C)(C)C3C(=O)O)c2ccccc2)C1=O (stereo not drawn)
MIC (Escherichia coli; broth microdilution; ATCC 25922 wild type; no clavulanic acid): 25 µg/mL

CCCCCCCCCC(=O)N[C@@H](Cc1c[nH]c2ccccc12)C(=O)N[C@H](CC(N)=O)C(=O)N[C@@H](CC(=O)O)C(=O)N[C@@H]1C(=O)NCC(=O)N[C@@H](CCCN)C(=O)N[C@@H](CC(=O)O)C(=O)N[C@H](C)C(=O)N[C@@H](CC(=O)O)C(=O)NCC(=O)N[C@H](CO)C(=O)N[C@@H]([C@H](C)CC(=O)O)C(=O)N[C@@H](CC(=O)c2ccccc2N)C(=O)O[C@@H]1C
MIC (Staphylococcus simulans; broth microdilution; 22, Mueller-Hinton broth, Mg2+ 10 mg/L; 16 h, 30 °C, with: Ca2+ 1.0 mM): 1 µg/mL

C[C@H]1[C@H](NC(=O)/C(=N\OC(C)(C)C(=O)O)c2csc(N)n2)C(=O)N1S(=O)(=O)O
MIC (Citrobacter freundii; agar dilution; ATCC 43864 susceptible): 0.125 µg/mL

C[C@@H](O)[C@H]1C(=O)N2C(C(=O)O)=C(S[C@@H]3CN[C@H](C(=O)N(C)C)C3)[C@H](C)[C@H]12
MIC (Klebsiella oxytoca; broth microdilution; isolate RKI 52/07): 32 µg/mL

FC(F)(F)c1ccc(OCCn2c(CNCC34CC5CC(CC(C5)C3)C4)nc3ccccc32)cc1
MIC (Streptococcus pneumoniae; ATCC 49619): 8 µg/mL

CN[C@H](CC(C)C)C(=O)N[C@H]1C(=O)N[C@@H](CC(N)=O)C(=O)N[C@H]2C(=O)N[C@H]3C(=O)N[C@H](C(=O)N[C@H](C(=O)O)c4cc(O)cc(O)c4-c4cc3ccc4O)[C@H](O)c3ccc(c(Cl)c3)Oc3cc2cc(c3O[C@@H]2O[C@H](CO)[C@@H](O)[C@H](O)[C@H]2O[C@H]2C[C@](C)(N)[C@H](O)[C@H](C)O2)Oc2ccc(cc2Cl)[C@H]1O
MIC (Staphylococcus simulans; broth microdilution; 22, cation-adjusted Mueller-Hinton broth): 0.084 µM

N=C(N)c1ccc(OCc2ccccc2COc2ccc(C(=N)N)cc2)cc1
MIC (Escherichia coli; 552100; in combination, checkerboard, with: rifampicin): 25 µg/mL

c1ccc(OCCn2c(CNC34CC5CC(CC(C5)C3)C4)nc3ccccc32)cc1
MIC (Streptococcus pneumoniae; ATCC 49619): 4 µg/mL

CNC(C)C1CCC(N)C(OC2C(N)CC(N)C(OC3OCC(C)(O)C(NC)C3O)C2O)O1 (stereo not drawn)
MIC (Serratia fonticola; clinical isolate RKI-No_517/16): 4 µg/mL

CC1NC(=O)C(C(=O)NC(C(=O)NC2C(=O)N3C2SC(C)(C)C3C(=O)O)c2ccccc2)=C1O (stereo not drawn)
MIC (Escherichia coli; broth microdilution; ATCC 25922 wild type; with: clavulanic acid 6 µg/mL): 25 µg/mL

CN[C@H](CC(C)C)C(=O)N[C@H]1C(=O)N[C@@H](CC(N)=O)C(=O)N[C@H]2C(=O)N[C@H]3C(=O)N[C@H](C(=O)N[C@H](C(=O)O)c4cc(O)cc(O)c4-c4cc3ccc4O)[C@H](O)c3ccc(c(Cl)c3)Oc3cc2cc(c3O[C@@H]2O[C@H](CO)[C@@H](O)[C@H](O)[C@H]2O[C@H]2C[C@](C)(N)[C@H](O)[C@H](C)O2)Oc2ccc(cc2Cl)[C@H]1O
MIC (Streptococcus pneumoniae; ATCC 49619, wild type, CAMHB, lysed horse blood): 3.1 µg/mL

CCCCCCCCCC(=O)N[C@@H](Cc1c[nH]c2ccccc12)C(=O)N[C@H](CC(N)=O)C(=O)N[C@@H](CC(=O)O)C(=O)N[C@@H]1C(=O)NCC(=O)N[C@@H](CCCN)C(=O)N[C@@H](CC(=O)O)C(=O)N[C@H](C)C(=O)N[C@@H](CC(=O)O)C(=O)NCC(=O)N[C@H](CO)C(=O)N[C@@H]([C@H](C)CC(=O)O)C(=O)N[C@@H](CC(=O)c2ccccc2N)C(=O)O[C@@H]1C
MIC (Staphylococcus aureus; SH1000; with: menaquinone-4, molar ratio 2): 1 µg/mL

NC[C@H]1O[C@H](O[C@H]2[C@H](O)[C@@H](O[C@H]3O[C@H](CO)[C@@H](O)[C@H](N)[C@H]3O)[C@H](N)C[C@@H]2N)[C@H](O)[C@@H](O)[C@@H]1O
MIC (Kocuria sp.; broth microdilution; sugar glider pouch or skin isolate, cation-adjusted Mueller-Hinton broth; 16 h, 37 °C, above 90% inhibition): 16 µg/mL

Excerpt of the above:
CCCCCCCCCC(=O)N[C@@H](Cc1c[nH]c2ccccc12)C(=O)N[C@H](CC(N)=O)C(=O)N[C@@H](CC(=O)O)C(=O)N[C@@H]1C(=O)NCC(=O)N[C@@H](CCCN)C(=O)N[C@@H](CC(=O)O)C(=O)N[C@H](C)C(=O)N[C@@H](CC(=O)O)C(=O)NCC(=O)N[C@H](CO)C(=O)N[C@@H]([C@H](C)CC(=O)O)C(=O)N[C@@H](CC(=O)c2ccccc2N)C(=O)O[C@@H]1C
MIC (Staphylococcus aureus; SH1000; with: menaquinone-4, molar ratio 2): 1 µg/mL
